Published values of several laboratories.
Every numbered part comes from another study and shows a few of its results, in no order.

Study 1 — technique: RNA Bind-n-Seq; molecule type: RNA; medium: in vitro; tested at: 365 nM; baseline: no-protein control; direction: higher = stronger binding
Target: RNA binding protein fox-1 homolog 2, RRM domain, GST-SBP tag (RBFOX2, Homo sapiens, UniProt O43251-10, residues 100-194)
Setting: natural RNA segment, single round, ends assumed
Target sequence (chain): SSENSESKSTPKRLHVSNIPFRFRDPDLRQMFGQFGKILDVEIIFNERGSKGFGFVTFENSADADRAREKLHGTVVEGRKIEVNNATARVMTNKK
`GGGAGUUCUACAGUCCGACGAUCGGGUUGUGGCCCGAGGCUGCAGUCAGAGGUAUACUUCCCAUAGUGCUUCACACAGCUCCCCUGCUUCUAAAGGAUAAGGUACUGUAGCCUUGGUCCUGGGGACCACCUGCUGGAAUUCUCGGGUGCCAA`: “RBNS enrichment (R)” 1.71.
`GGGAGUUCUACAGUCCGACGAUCGUCUAGGGAUGGGUGAAAAAUAAUGUCGGCAUUGUUUUUUAAUUUUUUAAAAAAUAAAUGGUAUCUUAUUUAAUUGUCCUGUUCCUUCCCACUCCUUCCCCCCCUCCCCCUGGAAUUCUCGGGUGCCAA` — result for “RBNS enrichment (R)”: 0.632.
Under “RBNS enrichment (R)”, `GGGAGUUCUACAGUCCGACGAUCCAGGCCAGGGCAGAUGGCCAAGGGUAGAAAGGUGUGCUAACGUGGCCAGGGAUGGCCGGAGAGCUUCGGGUUCCACUAUGUUCACAUGGAUGCCCCAGCGCCUGGGGUGAUGGAAUUCUCGGGUGCCAA` is recorded as 0.691.
`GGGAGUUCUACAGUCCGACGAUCAUAAGACUUUAACUGCAGUUCCAAAGCUUCUCUAACCCAAAAAUUACAGUACCAAAUGAUUGACUCAGGAUUGUUUUUCCCAUAUUGAUAUGCUGGCAAUAUAGGAUGGUUGGAAUUCUCGGGUGCCAA`: “RBNS enrichment (R)” 0.603.
`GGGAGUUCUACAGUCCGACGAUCUUUAUUUUGGAAUUGAACUAUUAUUAAAUUGUAUCUAAUCCUGGAUUACAGUUUAAUUAAUUAUUCUUAGUGCUUAAGGCUUCAUAAAGUAAUUUUUCCAACCUUUUUUUUGGAAUUCUCGGGUGCCAA` — result for “RBNS enrichment (R)”: 0.647.
`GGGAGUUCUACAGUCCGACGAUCCCUGACACAUCAGGCAAUGAAUAAUGGGGCAGAUGACAGGCUGCUUGGUGUCAUUUUCAGGCGGGCCCCUCUCUGAUUCCUCGGUCUGGAAAUAAACGCCAGGAAACAGCUGGAAUUCUCGGGUGCCAA`: “RBNS enrichment (R)” 0.469.
`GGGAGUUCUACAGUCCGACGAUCCAGCCUUGGGAAAGGGGGACUCUUAGCUCUGUUGGUAUCACCGGGCCAUCUGGAAUGCAAGGUGAGACUGGCCAGCCGGUCUGACUCUGAUCCCAGGUGACUGGCUCUUGUGGAAUUCUCGGGUGCCAA`: “RBNS enrichment (R)” 0.28.
`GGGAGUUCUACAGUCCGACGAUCUCAAAGCCCAGGUAUCUCUCAGAUCUGCUGCCUGAGAAAUAAGCUCCUUUAUCAGUUAGCUGUUUUAUCAUUAGGAUACAAGACAGCCCAGUGUCAUCAACAGUGAGCAAUGGAAUUCUCGGGUGCCAA` — result for “RBNS enrichment (R)”: 0.325.
For `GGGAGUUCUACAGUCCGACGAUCCAUAUACUGGGUAUCCAAGCUCUGGGAAGUUAUCCUACCAGGCCCUGAUCUGUUGAUAAGGCACUAUACACCAUGCUGGUGUGUUCUGUAGCCUUGUGCCCAUUAGGUAAUGGAAUUCUCGGGUGCCAA`, “RBNS enrichment (R)” read 0.254.

Study 2 — technique: EMSA with sequencing; molecule type: double-stranded DNA, one strand shown; medium: in vitro; tested at: 10 and 20 nM; baseline: negative control set to 0; direction: higher = stronger binding
Target: Hepatocyte nuclear factor 3-alpha (Foxa1, Mus musculus, UniProt P35582, residues 1-468, full length assumed)
Setting: whole designed probe, mean of two concentrations, ends assumed
Construct (chain): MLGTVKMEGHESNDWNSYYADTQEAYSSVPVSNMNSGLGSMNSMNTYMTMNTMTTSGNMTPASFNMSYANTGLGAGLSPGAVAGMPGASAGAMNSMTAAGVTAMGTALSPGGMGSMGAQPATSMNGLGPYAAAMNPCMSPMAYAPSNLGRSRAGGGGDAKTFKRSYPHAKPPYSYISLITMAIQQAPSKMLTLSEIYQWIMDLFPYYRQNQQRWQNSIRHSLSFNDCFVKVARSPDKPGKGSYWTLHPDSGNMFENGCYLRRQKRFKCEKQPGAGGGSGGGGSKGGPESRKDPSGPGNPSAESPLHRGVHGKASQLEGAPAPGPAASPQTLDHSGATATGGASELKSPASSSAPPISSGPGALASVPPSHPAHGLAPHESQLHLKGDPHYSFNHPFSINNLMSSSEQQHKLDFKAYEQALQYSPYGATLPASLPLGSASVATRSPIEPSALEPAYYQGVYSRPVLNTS
Under “normalised bound fraction”, `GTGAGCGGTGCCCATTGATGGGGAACCTGTATGTCATCTTGCTCCTGGGCCACCTGACTGATGTTTAATGCCTGGAAAATTGCTTTCACCTCTGCATGACCAAGCCTTGGCCAAGTCACAGATGACTCAGTTGCAACATCTGTCCCCTGCTGAGGGCTGTTGTAGCTTTCATAGCTCACAGTCCAGCTTGAATCTAACCTTTTCTGTGGTCATTCAGAGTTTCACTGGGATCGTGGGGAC` is recorded as -0.0662 ratio.
For `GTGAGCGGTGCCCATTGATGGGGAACATCTTCCCCCTCTTCCTTGCCCCACCAGCTCACCTACGGGGGTTATTTGCACAAAGGAAAATAAATAAAGCCGGCATTCGTTAACGCAGTTCTGGCGCAAACTGCTGTTTGCTCTGGATCTAACATGGTCCTTTGGCGAGGCGTGGCTCCGGGAGAGCAAAGCACCGTGTCAGGGCCATGATCCGGGCTCGCCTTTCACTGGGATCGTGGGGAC`, “normalised bound fraction” read 0.384 ratio.
`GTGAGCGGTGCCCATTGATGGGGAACCATCAAGGGTGTGTGATGAATGTTATGTCTGTGATTATGCAACAGGAGATGGGACTTTCCATCTTTCTAGCAGGCTTTCTCGACTCTCTCCCTTATTGACTTTGTTGATGTAAGCCTCCATGTGGTAAAGCCCTTGTGGCGGGAACTCAGGGCAGCCTCCGGCAACAGCCAGCAGGGAGCTGGGACTCAACAATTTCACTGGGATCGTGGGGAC`: “normalised bound fraction” 0.282 ratio.
`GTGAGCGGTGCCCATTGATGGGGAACTCGCCTGCTTTGGAGACGTGGCTGGCGGTGCTGCAGTGGCCTCAGTGAGCGTAAGGTTGACTGGAAGTAGGTTTCTAATTGTCTAATGCTGTTGTTTACTTTGAGTGCATGTTGTGGGGGTTGGGGAGACGCTGGTCGGCAGGCCACCTGCTACAGCCCCAGCTCACGTGTGTGTTGTGAAGGAGCGCTGCACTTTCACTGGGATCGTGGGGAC`: “normalised bound fraction” 0.44 ratio.
`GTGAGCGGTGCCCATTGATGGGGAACATCTTCCCCCTCTTCCTTGCCCCACCAGCTCACCTTCCCGGGTTATTTGCAGATAGGAAAATAAATAAAGCCGGCATTCGTTAACGCAGTTCACGCGCATACTGCTGTTTGCTCTGGATCTAACATGGTCCTTTGGCGAGGCGTGGCTCCGGGAGAGCAAAGCACCGTGTCAGGGCCATGATCCGGGCTCGCCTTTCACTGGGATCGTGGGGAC` — result for “normalised bound fraction”: 0.352 ratio.
For `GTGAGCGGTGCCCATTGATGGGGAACTTCTGGTAACTCCAACTTTTGGCTCATTTGTGGGTCAGACAGATCTGAGAAGCTTGGTTTTTTTTTACTCAGTGTCAGGTACTTTATATTTAGTGTTTACATTCCTAGCCAGAGAAGCATTTATGTAAACACTCTCTATATTTAATGACTCAGTTTAAGAAAATGCTTACAATAATTGAGGTCTCCTTGTTTCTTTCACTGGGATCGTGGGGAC`, “normalised bound fraction” read 0.422 ratio.

Study 3 — technique: universal PBM; molecule type: double-stranded DNA, one strand shown; medium: in vitro; tested at: not given; direction: higher = stronger binding
Target: Sal-like protein 4, full length isoform B (SALL4, Homo sapiens, UniProt Q9UJQ4-2, residues 1-616)
Setting: 8-mer, flanks averaged, mean of replicates
`CGTTCAAA` has an E-score of -0.022.
For `CTAGTCAA`, the E-score was 0.0191.
`CCGCCGGC` gave an E-score of -0.256.
`CAAAAGGC` has an E-score of -0.224.
With `CGGCGAAG` the E-score was -0.255.
`CCGGGCAA` has an E-score of -0.265.
For `AATCCATG`, the E-score was 0.0792.
The E-score of `AAGAAGAA` is reported as 0.149.
`TACCTTCA` gave an E-score of 0.13.
The E-score of `AGCCGTAA` is reported as 0.0808.
For `GCGATTAC`, the E-score was -0.0128.
With `CTGTTTAA` the E-score was 0.0522.
For `ACCGACCT`, the E-score was -0.246.
With `GCACTCGA` the E-score was -0.169.
With `AGACACAC` the E-score was -0.176.
With `GGTCCCAA` the E-score was -0.194.
`CGCTTACC` has an E-score of -0.0628.
`GATGAGGA` gave an E-score of -0.0372.
`CCTTTAAG` gave an E-score of -0.0695.
With `CATCGCAA` the E-score was -0.012.
With `ACTTCTGG` the E-score was -0.217.
The E-score of `GAAAAACC` is reported as 0.0338.

Study 4 — technique: protein-binding microarray; molecule type: double-stranded DNA, one strand shown; medium: in vitro; tested at: 2540 nM top; setting: 60-bp whole probe; added: salmon DNA 0.4 mg/ml; baseline: random background probes; direction: higher = stronger binding; constant ends, left off below: GCCTAGCAC … GTCTTGATTCGCTTGACGCTGCTG
Target: Interferon regulatory factor 3, full length, phosphomimetic (IRF3, Homo sapiens, UniProt Q14653, residues 1-427, S386D/S396D/S398D/S402D/T404D/S405D)
Target sequence (chain): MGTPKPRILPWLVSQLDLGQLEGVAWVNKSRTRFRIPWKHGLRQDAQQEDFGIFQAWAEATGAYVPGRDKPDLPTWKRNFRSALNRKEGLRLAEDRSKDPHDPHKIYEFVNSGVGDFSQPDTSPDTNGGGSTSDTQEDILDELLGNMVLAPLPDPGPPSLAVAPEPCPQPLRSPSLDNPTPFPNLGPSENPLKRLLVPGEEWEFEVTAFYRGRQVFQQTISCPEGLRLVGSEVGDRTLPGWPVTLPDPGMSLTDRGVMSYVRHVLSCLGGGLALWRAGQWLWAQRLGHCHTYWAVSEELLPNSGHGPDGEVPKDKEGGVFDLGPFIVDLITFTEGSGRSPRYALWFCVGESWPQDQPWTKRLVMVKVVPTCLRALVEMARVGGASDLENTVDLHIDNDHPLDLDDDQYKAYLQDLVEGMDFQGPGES
For `TCATACTTCTCTTTTGGACTGTGCTAG`, “fitted relative affinity” read 1.39 z-score.
`TACGGACTGGGTATCGGGACGTGCTAG` — result for “fitted relative affinity”: -0.304 z-score.
`GACGAACTGAGTATCGAGTCGTGCTAG` — result for “fitted relative affinity”: 0.242 z-score.
For `TCACATCTGCAACATCTAACTGTGCTA`, “fitted relative affinity” read 0.601 z-score.
For `TTAGATCTTAGTATCGATTAGTGCTAG`, “fitted relative affinity” read 0.689 z-score.
Under “fitted relative affinity”, `TCAAAAAATGATTGGTTACTGTGCTAG` is recorded as -0.457 z-score.
`TTAGGTTTCCTACTGCGTTAGTGCTAG` — result for “fitted relative affinity”: 4.97 z-score.
For `TCAGGTTTCGACACTGGGTTAGTGCTA`, “fitted relative affinity” read 2.46 z-score.
`TTTGTAATCGAAATCTTCATGTGCTAG` — result for “fitted relative affinity”: 0.403 z-score.
For `GACGGCTTCGGACTGGGGACGTGCTAG`, “fitted relative affinity” read -0.726 z-score.
`TCACCAATCAGGACTCAGACTGTGCTA` — result for “fitted relative affinity”: 1.15 z-score.
Under “fitted relative affinity”, `TCAGTTCTTTTTTTCAAACTGTGCTAG` is recorded as 2.64 z-score.
For `TCAATTTTGTTTTTCATACTGTGCTAG`, “fitted relative affinity” read 2.11 z-score.
`GACGATCTCAGTTTCGCGACGTGCTAG`: “fitted relative affinity” 1.79 z-score.
Under “fitted relative affinity”, `CTCCCTCTGTAAGTCAGCACGTGCTAG` is recorded as 0.264 z-score.
Under “fitted relative affinity”, `AGGAGTATTTATCTGCAAAGGTGCTAG` is recorded as -0.0452 z-score.
Under “fitted relative affinity”, `TCAGGTTTCCTTATCCTTTAGTGCTAG` is recorded as 8.2 z-score.
Under “fitted relative affinity”, `GACGGACTGAGTATCGGGACGTGCTAG` is recorded as 0.00462 z-score.
For `GACGGTACCGGGTATCGGGACGTGCTA`, “fitted relative affinity” read 0.382 z-score.
For `TTAGGACTGGGGTATCGCTTAGTGCTA`, “fitted relative affinity” read -0.615 z-score.
`GACGAACTGCTTCTCCTGACGTGCTAG`: “fitted relative affinity” -0.196 z-score.
`TTAGGACTGGCGTTTCGGTTAGTGCTA` — result for “fitted relative affinity”: 2 z-score.
`GACGGTTTCGGGTTTCGAGACGTGCTA` — result for “fitted relative affinity”: 5.83 z-score.
For `TCAATTATATATTTATGACTGTGCTAG`, “fitted relative affinity” read 0.396 z-score.
Under “fitted relative affinity”, `CTCTGTCCCTGTTTCTACTGGTGCTAG` is recorded as 0.972 z-score.

Repeated from above (study 4):
For `TCAATTTTGTTTTTCATACTGTGCTAG`, “fitted relative affinity” read 2.11 z-score.
`GACGATCTCAGTTTCGCGACGTGCTAG`: “fitted relative affinity” 1.79 z-score.
Under “fitted relative affinity”, `CTCCCTCTGTAAGTCAGCACGTGCTAG` is recorded as 0.264 z-score.
Under “fitted relative affinity”, `AGGAGTATTTATCTGCAAAGGTGCTAG` is recorded as -0.0452 z-score.
Under “fitted relative affinity”, `TCAGGTTTCCTTATCCTTTAGTGCTAG` is recorded as 8.2 z-score.
